{"data": "Measured values from different studies", "note": "A part holds a random share of what one study measured."}
{"data": "Series 1", "target": "Sal-like protein 4, full length isoform A (SALL4, Homo sapiens, UniProt Q9UJQ4, residues 1-1053)", "method": "universal PBM", "molecule type": "double-stranded DNA, one strand shown", "medium": "in vitro", "concentration": "600 nM", "setting": "8-mer, flanks averaged, mean of replicates", "direction": "higher = stronger binding", "UniProt Q9UJQ4, sequence (whole entry, looked up)": "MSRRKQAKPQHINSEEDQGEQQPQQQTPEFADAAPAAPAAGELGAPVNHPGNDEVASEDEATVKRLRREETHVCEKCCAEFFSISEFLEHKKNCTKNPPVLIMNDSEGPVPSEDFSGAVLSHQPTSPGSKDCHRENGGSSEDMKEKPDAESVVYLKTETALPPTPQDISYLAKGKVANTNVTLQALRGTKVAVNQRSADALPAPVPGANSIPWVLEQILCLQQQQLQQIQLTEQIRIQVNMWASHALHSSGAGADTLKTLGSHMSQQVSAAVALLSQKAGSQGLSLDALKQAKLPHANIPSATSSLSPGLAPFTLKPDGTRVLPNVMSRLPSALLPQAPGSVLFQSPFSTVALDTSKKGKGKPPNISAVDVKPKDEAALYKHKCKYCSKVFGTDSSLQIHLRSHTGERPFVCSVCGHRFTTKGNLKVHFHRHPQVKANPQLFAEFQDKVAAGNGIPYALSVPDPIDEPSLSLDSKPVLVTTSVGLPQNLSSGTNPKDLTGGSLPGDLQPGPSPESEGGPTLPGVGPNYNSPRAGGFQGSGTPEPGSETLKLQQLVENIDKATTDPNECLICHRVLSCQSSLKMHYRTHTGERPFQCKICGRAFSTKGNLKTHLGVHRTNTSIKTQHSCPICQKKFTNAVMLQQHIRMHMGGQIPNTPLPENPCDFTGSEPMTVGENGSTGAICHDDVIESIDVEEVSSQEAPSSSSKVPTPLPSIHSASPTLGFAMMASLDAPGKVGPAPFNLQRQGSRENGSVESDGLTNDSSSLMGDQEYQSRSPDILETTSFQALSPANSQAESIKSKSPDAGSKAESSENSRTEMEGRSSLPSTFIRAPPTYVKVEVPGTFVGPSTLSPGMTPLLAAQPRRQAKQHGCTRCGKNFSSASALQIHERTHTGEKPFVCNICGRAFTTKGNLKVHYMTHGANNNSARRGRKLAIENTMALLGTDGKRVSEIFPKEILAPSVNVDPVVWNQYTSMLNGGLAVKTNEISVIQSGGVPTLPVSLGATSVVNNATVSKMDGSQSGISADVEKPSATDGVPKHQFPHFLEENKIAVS"}
{"Oligonucleotide": "CCTCGTGA", "E-score": 0.0155}
{"Oligonucleotide": "CACCTGGG", "E-score": -0.276}
{"Oligonucleotide": "CAGTGGCG", "E-score": -0.297}
{"Oligonucleotide": "AATTGCGC", "E-score": 0.138}
{"Oligonucleotide": "ATGGTCTC", "E-score": -0.0143}
{"Oligonucleotide": "GAACCTGC", "E-score": -0.19}
{"Oligonucleotide": "GCAATGGA", "E-score": 0.0789}
{"Oligonucleotide": "AGATGCTA", "E-score": 0.174}
{"data": "Series 2", "target": "Interferon regulatory factor 7, full length, phosphomimetic (IRF7, Homo sapiens, UniProt Q92985, residues 1-503, S471D/S472D/S475D/S476D/S477D/S483D/S484D/S487D)", "method": "protein-binding microarray", "molecule type": "double-stranded DNA, one strand shown", "medium": "in vitro", "concentration": "2200 nM top", "setting": "60-bp whole probe", "with": "salmon DNA 0.4 mg/ml", "baseline": "random background probes", "direction": "higher = stronger binding", "all sequences stand within": "GCCTAGCAC … GTCTTGATTCGCTTGACGCTGCTG", "UniProt Q92985, sequence (whole entry, unmodified, looked up)": "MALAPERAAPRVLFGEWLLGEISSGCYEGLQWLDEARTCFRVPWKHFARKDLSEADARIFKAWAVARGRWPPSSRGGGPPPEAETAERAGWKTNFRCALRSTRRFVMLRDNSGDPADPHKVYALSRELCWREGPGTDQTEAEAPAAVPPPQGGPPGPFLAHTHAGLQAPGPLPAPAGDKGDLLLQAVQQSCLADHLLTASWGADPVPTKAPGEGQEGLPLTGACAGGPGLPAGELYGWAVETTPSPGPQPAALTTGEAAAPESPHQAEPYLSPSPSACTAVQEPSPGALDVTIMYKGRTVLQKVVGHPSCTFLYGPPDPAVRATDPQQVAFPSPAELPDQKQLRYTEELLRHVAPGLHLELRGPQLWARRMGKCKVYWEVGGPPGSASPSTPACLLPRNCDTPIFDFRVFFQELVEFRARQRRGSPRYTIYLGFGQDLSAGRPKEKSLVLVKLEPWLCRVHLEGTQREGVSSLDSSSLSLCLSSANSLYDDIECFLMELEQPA"}
{"Oligonucleotide": "ACCCATTGAGATTTCCATTAGTGCTAG", "fitted relative affinity": "1.09 z-score"}
{"Oligonucleotide": "TTAGGACTGGGGTTTCGGTTCGTGCTA", "fitted relative affinity": "7 z-score"}
{"Oligonucleotide": "GACGGTTTCGACTATCGGGACGTGCTA", "fitted relative affinity": "3.49 z-score"}
{"Oligonucleotide": "TTAAGACTGGACACTGGGTTAGTGCTA", "fitted relative affinity": "-0.777 z-score"}
{"Oligonucleotide": "GACGATATCAGTTTCGAAACGTGCTAG", "fitted relative affinity": "3.84 z-score"}
{"Oligonucleotide": "CCTCTGCTCCTCTTTTTTTGGGTGCTA", "fitted relative affinity": "1.56 z-score"}
{"Oligonucleotide": "GACGGTTTCCTTTTCCGGACGTGCTAG", "fitted relative affinity": "5.65 z-score"}
{"Oligonucleotide": "GTAGGTCTCGGTATCGGTTAGTGCTAG", "fitted relative affinity": "0.769 z-score"}
{"data": "Series 3", "target": "Replicase polyprotein 1ab, nsp13 helicase (rep, Severe acute respiratory syndrome coronavirus 2, UniProt P0DTD1)", "action": "inhibitor", "concentration": "20 µM"}
{"Structure (SMILES)": "CC(C)NCC(O)COc1ccccc1-n1cccc1 (stereo not drawn)", "inhibition [%]": 8.14}
{"Structure (SMILES)": "OC[C@H]1O[C@H](O)[C@H](O)[C@@H](O)[C@@H]1O", "inhibition [%]": 0.06}
{"Structure (SMILES)": "COc1cc2nc(N3CCN(C(=O)C(C)OC)CC3)nc(N)c2cc1OC (stereo not drawn)", "inhibition [%]": 0.52}
{"Structure (SMILES)": "NC(=O)C1=CN([C@@H]2O[C@H](COP(=O)(O)OP(=O)(O)OC[C@H]3O[C@@H](n4cnc5c(N)ncnc54)[C@H](OP(=O)(O)O)[C@@H]3O)[C@@H](O)[C@H]2O)C=CC1", "inhibition [%]": 3.74}
{"Structure (SMILES)": "Cn1c(=O)c2[nH]c(Br)nc2n(C)c1=O", "inhibition [%]": -4.53}
{"Structure (SMILES)": "Nc1ncnc2c1ncn2[C@@H]1O[C@H](C(=O)N2CCN(CC(=O)Nc3cccc4c3CNC4=O)CC2)[C@@H](O)[C@H]1O", "inhibition [%]": 2.1}
{"Structure (SMILES)": "COc1ccc(C(CN(C)C)C2(O)CCCCC2)cc1 (stereo not drawn)", "inhibition [%]": 0.77}
{"Structure (SMILES)": "O=C(O)[C@@H](O)[C@H](O)[C@H](O)[C@@H](O)C(=O)O", "inhibition [%]": -0.82}
{"Structure (SMILES)": "CC(C)(NS(=O)(=O)c1ccc(Oc2ccc(F)cc2)cc1)C(=O)NO", "inhibition [%]": 5.89}
{"Structure (SMILES)": "OCCNCCCOc1cccc(Cl)c1Cl", "inhibition [%]": 3.34}
{"Structure (SMILES)": "CC1(C)C(=O)NC2=C1C(=O)C(=O)c1ccccc12", "inhibition [%]": 76.4}
{"Structure (SMILES)": "O=C(Nc1cc2cc[nH]c2cn1)c1ccccc1", "inhibition [%]": 8.26}
{"Structure (SMILES)": "NC(=O)c1cc[n+](CC2=C(C(=O)[O-])N3C(=O)[C@@H](NC(=O)Cc4cccs4)[C@H]3SC2)cc1", "inhibition [%]": 11.2}
{"Structure (SMILES)": "CC(=O)c1ccc(NS(C)(=O)=O)c(Oc2ccc(F)cc2F)c1", "inhibition [%]": 2.39}
{"Structure (SMILES)": "NCc1cc(O)no1", "inhibition [%]": 5.15}
{"data": "Other studies, line by line", "concentration": "10 µM", "time": "16 h"}
{"Compound": "Cc1nc(Nc2ncc(C(=O)Nc3c(C)cccc3Cl)s2)cc(N2CCN(CCO)CC2)n1", "cell line": "HEK-293T/ACE2", "baseline": "vehicle", "quantity": "viability", "result": "105%"}
{"Compound": "Cc1cn([C@H]2C[C@H](N=[N+]=[N-])[C@@H](CO)O2)c(=O)[nH]c1=O", "cell line": "HEK-293T", "effect on": "pseudovirus infection", "method": "FDA-approved drug library screen", "organism": "VSV pseudotyped with SARS-CoV-2 spike", "baseline": "vehicle-treated", "quantity": "GFP-positive cells", "result": "105%"}
{"note": "For quick reference, copied from above (series 1):"}
{"Oligonucleotide": "CCTCGTGA", "E-score": 0.0155}
{"Oligonucleotide": "CACCTGGG", "E-score": -0.276}
{"Oligonucleotide": "CAGTGGCG", "E-score": -0.297}
{"Oligonucleotide": "AATTGCGC", "E-score": 0.138}
